Experimental data pooled from the literature.
Each numbered part is a random draw from the data of one study; scales do not carry over between parts. Numbers after ± are the reported error.
UniProt P0DOF5, sequence (whole entry, looked up): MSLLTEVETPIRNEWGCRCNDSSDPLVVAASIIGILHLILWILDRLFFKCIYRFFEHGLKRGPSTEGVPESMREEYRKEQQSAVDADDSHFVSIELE

Set 1
Cell line: HEK-293T
Observed: pseudovirus infection
Organism: VSV pseudotyped with SARS-CoV-2 spike
Concentration: 10 µM
Time: 16 h
Baseline: vehicle-treated
Compound | GFP-positive cells
Nc1cccc2c1C(=O)N(C1CCC(=O)NC1=O)C2=O (centres unmarked) | 98.5%
Nc1ncnc2c1ncn2[C@@H]1O[C@H](CO)[C@@H](O)[C@@H]1O | 87.8%
CN1CCC(=C2c3ccccc3CCn3c(C=O)cnc32)CC1 | 83.2%

Set 2
Target: Replicase polyprotein 1ab, nsp13 helicase (rep, Severe acute respiratory syndrome coronavirus 2, UniProt P0DTD1)
Mode: inhibitor
Concentration: 20 µM
Compound | inhibition [%]
NS(=O)(=O)Nc1ncnc(OCCOc2ncc(Br)cn2)c1-c1ccc(Br)cc1 | -1.59
CCN(CC)Cc1cc(Nc2ccnc3cc(Cl)ccc23)ccc1O | 9.85
O=C(c1cccc(Br)c1)N1CCC(N2CCCC2)CC1 | 4.21
COc1ccc(-c2cnc3c(-c4cccc5ncccc45)cnn3c2)cc1 | 5.3
c1ccc(NCc2ccc(CNc3ccccn3)cc2)nc1 | 0.96
OC(c1ccccc1)C1CCN(CCc2ccccc2)CC1 (centres unmarked) | 7.07
CN1CCN(CCCCN2C(=O)CN(/N=C/c3ccc(-c4ccc(Cl)cc4)o3)C2=O)CC1 | 34.3
Cc1c(S(=O)(=O)O)oc2c1C(=O)C(=O)c1c-2ccc2c1CCCC2(C)C | 18.5
O=C(O)Cn1c2c(c3cc(F)ccc31)CN(C(=O)c1cccc3ccccc13)CC2 | 6.26
COc1cc2c(cc1OC)[C@@H]1Cc3ccc(OC)c(OC)c3CN1CC2 | 1.42
Cc1nnc2n1-c1sc(CCC(=O)N3CCOCC3)cc1C(c1ccccc1Cl)=NC2 | 3.6
NC/C(=C/F)CCc1ccc(F)cc1 | 0.27
CC(C)(C)C1CCc2c(sc(NC(=O)c3ccco3)c2C(=O)O)C1 (centres unmarked) | 0.65
O=C(CCCN1CCC(n2c(=O)[nH]c3ccccc32)CC1)c1ccc(F)cc1 | 6.76
Cc1ccc(/C=C2/C(=O)[C@]3(C)CC[C@H]2C3(C)C)cc1 | 5.66
COc1ccc(CCN)cc1OC | -0.16
CN(C)Cc1cccc(N=C(c2ccccc2)c2c(O)[nH]c3cc(C(=O)N(C)C)ccc23)c1 | 3.17
O=C1NCCN1CCN1CCC(c2cn(-c3ccc(F)cc3)c3ccc(Cl)cc23)CC1 | -1.98
CCOC(N)=O | 6.14
CC(C(=O)O)c1ccc(N2Cc3ccccc3C2=O)cc1 (centres unmarked) | -1.34
S=C(NC1CCCCC1)N1CCC(c2cnc[nH]2)CC1 | -1.99
CN(NC(=O)CC(=O)NN(C)C(=S)c1ccccc1)C(=S)c1ccccc1 | 0.15
CCN(CC)CCOCCOC(=O)C1(c2ccccc2)CCCC1 | -4.14
CC(C)(C)C(=O)C(Oc1ccc(Cl)cc1)n1ccnc1 (centres unmarked) | 8.39
Cc1[nH]c(=O)c(C#N)cc1-c1ccncc1 | 6.74

Mixed results
rep main protease: Replicase polyprotein 1ab, main protease (rep, Severe acute respiratory syndrome coronavirus 2, UniProt P0DTD1)
Spike glycoprotein: Spike glycoprotein (Severe acute respiratory syndrome coronavirus 2, UniProt P0DTC2)
rep papain-like protease: Replicase polyprotein 1ab, papain-like protease (rep, Middle East respiratory syndrome-related coronavirus, UniProt K9N7C7)
Compound | target or system | test | test system | setting | how to read | measurement | value
N#C[C@@]1(c2ccc3c(N)ncnn23)O[C@H](CO)[C@@H](O)[C@H]1O | SARS-CoV-2 | viral replication | Vero E6 | 96 h | – | EC50 | < 800 nM
C=C[C@]1(CO)O[C@@H](n2cnc3c(N)nc(N)nc32)C[C@@H]1O | HIV-1 T215F | MTT | MT4 | – | – | IC50 | 7.9 nM
CC[C@H](C)[C@H](NC(=O)[C@H](CC(C)C)NC(=O)[C@H](Cc1c[nH]c2ccccc12)NC(=O)[C@H](CCC(N)=O)NC(=O)[C@@H](NC(=O)[C@H](Cc1ccccc1)NC(=O)[C@H](C)NC(=O)[C@H](CCCCNC(=O)COCCOCCNC(=O)COCCOCCNC(=O)CC[C@H](NC(=O)CCCCCCCCCCCCCCCCCCC(=O)O)C(=O)O)NC(=O)[C@H](CCC(N)=O)NC(=O)[C@H](C)NC(=O)[C@@H](NC(=O)[C@H](CCCCN)NC(=O)[C@H](CC(=O)O)NC(=O)[C@H](CC(C)C)NC(=O)C(C)(C)NC(=O)[C@@H](NC(=O)[C@H](CO)NC(=O)[C@H](Cc1ccc(O)cc1)NC(=O)[C@H](CC(=O)O)NC(=O)[C@H](CO)NC(=O)[C@@H](NC(=O)[C@H](Cc1ccccc1)NC(=O)[C@@H](NC(=O)CNC(=O)[C@H](CCC(=O)O)NC(=O)C(C)(C)NC(=O)[C@@H](N)Cc1ccc(O)cc1)[C@@H](C)O)[C@@H](C)O)[C@@H](C)CC)[C@@H](C)CC)C(C)C)C(=O)N[C@@H](C)C(=O)NCC(=O)NCC(=O)N1CCC[C@H]1C(=O)N[C@@H](CO)C(=O)N[C@@H](CO)C(=O)NCC(=O)N[C@@H](C)C(=O)N1CCC[C@H]1C(=O)N1CCC[C@H]1C(=O)N1CCC[C@H]1C(=O)N[C@@H](CO)C(N)=O | – | – | healthy subjects, single ascending dose | 0.25 mg, titre increase ≥4-fold | – | treatment-boosted ADA positive subjects | 0%
CC(C)(C)[C@H](NC(=O)C(F)(F)F)C(=O)N1C[C@H]2[C@@H]([C@H]1C(=O)N[C@H](C#N)C[C@@H]1CCNC1=O)C2(C)C | – | – | human, fasted | 150 mg single dose | – | Vz/F, geometric mean | 191 L
CC(C)[C@]12O[C@H]1[C@@H]1O[C@]13[C@]1(O[C@H]1C[C@H]1C4=C(CC[C@@]13C)C(=O)OC4)[C@@H]2O | mouse MPNST tumor cells | high-content immunofluorescence imaging, measured: nuclear SOX9 | – | 10 µM, 12 h, mean of 2 replicates | baseline: DMSO control, higher = more nuclear SOX9 | nuclear SOX9 intensity | 92.9 % of DMSO
COc1ccc(-c2nnc(Nc3nc4c(OC)cccc4s3)o2)cc1 | Replicase polyprotein 1ab, nsp13 helicase (rep, Severe acute respiratory syndrome coronavirus 2, UniProt P0DTD1) | helicase ATPase activity, inhibitor, Kinase-Glo luminescence | – | – | – | IC50 | > 150000 nM
Sc1nnnn1-c1ccccc1 | rep main protease | enzyme activity, inhibitor, fluorescence | – | – | – | IC50 | > 20000 nM
COc1cc2c(cc1NC(=O)c1ccc(C(C)(C)C)cc1)CCCCN2 | Chikungunya virus | viral replication | NHDF | – | – | EC90 | 3300 nM
Nc1ccn([C@H]2C[C@H](O)[C@@H](COP(=O)(O)OP(=O)(O)OP(=O)(O)O)O2)c(=O)n1 | Gag-Pol polyprotein, reverse transcriptase (gag-pol, Human immunodeficiency virus type 1 group M subtype B, UniProt P04585, K653R) | nucleotide misinsertion, steady-state kinetics | – | K66R mutant RT, with: opposite template T | – | Km | 213 ± 117 µM
Oc1cc(O)c2c(c1)O[C@H](c1cc(O)c(O)c(O)c1)[C@H](O)C2 | Spike glycoprotein | binding, biolayer interferometry | – | – | – | Kd | 63100 nM
NC12CC3CC(CC(C3)C1)C2 | Matrix protein 2 (Influenza A virus, UniProt P0DOF5) | channel activity, inhibitor | – | 100 µM, 2 min | – | remaining activity | 6.1 ± 1%
COc1ccc(C[C@H](NC(=O)[C@H](C)NC(=O)CN2CCOCC2)C(=O)N[C@@H](Cc2ccccc2)C(=O)C2(C)CO2)cc1 (stereo in doubt) | rep main protease | reporter gene (Gaussia luciferase), inhibitor | – | 20 µM | – | inhibition | -5.46%
Cc1cc(/C=C/C#N)cc(C)c1Nc1nc(Nc2ccc3cc(C#N)ccc3c2)ncc1N | HIV-1 | viral replication, single-round infection | RT mutant V106A/L234I | – | – | EC50 | 25.7 ± 2.1 nM
COc1cc(C(=S)N2CCOCC2)cc(OC)c1OC | rep main protease | enzyme activity, inhibitor | – | 20 µM, hit confirmation | – | inhibition | 18.2%
N#CC(=Cc1ccc(O)cc1)C(=O)O | mouse MPNST tumor cells | high-content immunofluorescence imaging, measured: nuclear SOX9 | – | 10 µM, 12 h, mean of 2 replicates | baseline: DMSO control, higher = more nuclear SOX9 | nuclear SOX9 intensity | 103 % of DMSO
O=C(O[C@@H]1Cc2c(O)cc(O)cc2O[C@@H]1c1cc(O)c(O)c(O)c1)c1cc(O)c(O)c(O)c1 | Spike glycoprotein | binding, BLI | – | – | – | koff | 0.00266 s⁻¹
CCC(CC)COC(=O)[C@H](C)N[P@](=O)(OC[C@H]1O[C@@](C#N)(c2ccc3c(N)ncnn23)[C@H](O)[C@@H]1O)Oc1ccccc1 | A549-hACE2-TMPRSS2 | – | – | 24 h | – | CC50 | > 1000 nM
CCC(C(=O)Nc1cc(NC2COC2)ccc1C)n1cc(Br)cc2nc(SCc3ccc(F)cc3)nc1-2 (centres unmarked) | rep papain-like protease | enzyme activity, inhibitor | – | – | – | IC50 | > 100000 nM
Cc1cn([C@H]2C[C@H](N=[N+]=[N-])[C@@H](CO)O2)c(=O)[nH]c1=O | HIV-1 | viral replication | human PBMC, subtype D 92UG024, CXCR4-tropic clinical isolate | – | – | EC50 | 6.48 ± 6.39 nM
O=c1cccccc1O | rep main protease | reporter gene (mKate2), inhibitor | – | 20 µM | – | inhibition | -1.1%
Cc1cn([C@H]2C[C@H](N=[N+]=[N-])[C@@H](COP(=O)(O)OP(=O)(O)OP(=O)(O)O)O2)c(=O)[nH]c1=O | Gag-Pol polyprotein, reverse transcriptase (gag-pol, Human immunodeficiency virus type 1 group M subtype B, UniProt P04585, K653N) | reverse transcriptase activity, inhibitor | HIV-1 | – | baseline: K66N mutant over wild type | fold resistance | 3 fold
CCC(C(=O)Nc1cc(NC2CCOCC2)ccc1C)n1cc(Cl)cc2nc(SCc3ccc(F)cc3)nc1-2 (centres unmarked) | rep papain-like protease | enzyme activity, inhibitor | – | – | – | IC50 | > 100000 nM

Some of these lines once more (set 2):
Compound | inhibition [%]
c1ccc(NCc2ccc(CNc3ccccn3)cc2)nc1 | 0.96
OC(c1ccccc1)C1CCN(CCc2ccccc2)CC1 (centres unmarked) | 7.07
CN1CCN(CCCCN2C(=O)CN(/N=C/c3ccc(-c4ccc(Cl)cc4)o3)C2=O)CC1 | 34.3
